Experimental data collected from several papers.
Parts stem from different laboratories: compare values within a part only. Positions count from the first letter of the parent shown.

Series 1
Target: Interferon regulatory factor 7, full length, phosphomimetic (IRF7, Homo sapiens, UniProt Q92985, residues 1-503, S471D/S472D/S475D/S476D/S477D/S483D/S484D/S487D)
Technique: protein-binding microarray
Form: double-stranded DNA, one strand shown
Matrix: in vitro
Concentration: 2200 nM top
Setting: 60-bp whole probe
Added: salmon DNA 0.4 mg/ml
Baseline: random background probes
Direction: higher = stronger binding
Quantity: fitted relative affinity
All sequences stand within: GCCTAGCAC … GTCTTGATTCGCTTGACGCTGCTG
Target sequence (chain): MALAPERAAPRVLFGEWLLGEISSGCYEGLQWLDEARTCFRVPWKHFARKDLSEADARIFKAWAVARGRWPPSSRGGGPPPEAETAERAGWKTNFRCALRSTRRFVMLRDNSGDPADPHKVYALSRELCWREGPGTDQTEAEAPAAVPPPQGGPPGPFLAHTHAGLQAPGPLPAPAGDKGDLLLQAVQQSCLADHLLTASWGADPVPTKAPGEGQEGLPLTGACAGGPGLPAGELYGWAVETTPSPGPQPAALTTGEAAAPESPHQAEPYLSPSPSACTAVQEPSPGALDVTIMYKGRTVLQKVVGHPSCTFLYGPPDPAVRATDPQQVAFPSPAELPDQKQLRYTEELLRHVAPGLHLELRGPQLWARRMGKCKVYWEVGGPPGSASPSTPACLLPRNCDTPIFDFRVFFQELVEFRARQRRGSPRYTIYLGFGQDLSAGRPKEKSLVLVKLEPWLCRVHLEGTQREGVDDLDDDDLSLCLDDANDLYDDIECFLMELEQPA
TTAGGTATCGAGTATCGGTTAGTGCTA: 0.538 z-score
TAAGGACTGGGGTTTCGGTTAGTGCTA: 2.79 z-score
TCACACATTTTTTTCATACTGTGCTAG: 1.53 z-score
GATGGTATCGGTCTCGGGACGTGCTAG: 0.152 z-score
TTAGGTATCGGTCTGGGTTAGTGCTAG: 0.454 z-score
TTAGGGATCGGGTTTCGGTTAGTGCTA: 2.88 z-score
GACGGACTGCTAGTGCTGACGTGCTAG: -0.263 z-score
GACGGGCTGCTTATCCTGACGTGCTAG: -0.302 z-score

Series 2
Target: Fragile X messenger ribonucleoprotein 1, C-terminal low-complexity region (Fmr1, Mus musculus, UniProt P35922)
Technique: RNA Bind-n-Seq
Form: RNA
Matrix: in vitro
Concentration: 200 nM
Setting: whole 134-nt RNA, ends assumed
Added: 150 mM LiCl
Baseline: input library
Direction: higher = stronger binding
Quantity: log2 enrichment
Each molecule: 7-deaza-guanosine replaces G
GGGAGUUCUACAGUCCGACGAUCUAACUUUAGAGGAGGAUCUGAUGGAUAUGGCAGUCGACGUGGAUUUGGGGAUGGCUAUAAUGGGUAUGGAGGAGGACCUGGAGGUGGCAAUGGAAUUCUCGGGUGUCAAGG: -0.211
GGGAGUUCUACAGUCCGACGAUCUUUGAAGGUGAUUUCUGGCCCAAUGUGUUAGAAGAGAGCAUUAAGGAACUAGAACAAGAAGAAGAGGAGAGGAAAAAGGAAGAGAGCACUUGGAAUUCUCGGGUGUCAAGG: -2.21
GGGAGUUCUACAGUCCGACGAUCGCAGGAAGUAAAAACAAAUGGAAAUGCUUCGGAUAGUGGCAGGGGUGGGGGUUGCUAAGGAAAGGGUGGGAUGCGAGUGGGUAAAGAGUUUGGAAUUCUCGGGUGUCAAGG: 1.38
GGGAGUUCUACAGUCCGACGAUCUAACUUUAGAGGAGGAUCUGAUGGAUAUGGCAGUGGACGUGGAUUUGGGGAUGGCUAUAAUGGGUAUCGAGGAGGACCUGGAGGUGGCAAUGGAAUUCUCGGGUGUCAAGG: 0.144
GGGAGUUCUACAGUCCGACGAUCUUUCUCCACAGGAGCCCCGCAAGUGAGCCAGCCACUGCGAGAGCAGAGUGAGGAUAUACCUGGAGCCAUUUCCUCUGCCCUGGCAGCCAUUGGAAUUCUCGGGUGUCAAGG: 1.13
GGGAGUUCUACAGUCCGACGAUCCUCAAGUCCUGUGCUACACAUCGUAUGUACCGAAUCGGGGAAGGAAGGGAAGGGAAAGUAUUAUGUUACGCCGUUCGGAUCUGCACUUCCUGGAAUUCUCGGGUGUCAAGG: -0.537
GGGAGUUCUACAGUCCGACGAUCCACAGACAACACGCACCCAAACAGACACAGAGGGAAGGGGUUGGGAUGGGGACAGGGUGCACAGCAGGGCGGGGUAGGACCCCAGCCCCUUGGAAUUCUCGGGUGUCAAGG: 0.29
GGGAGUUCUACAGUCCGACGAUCUCCUGUGCUACACAUCGUAUGUACCGAAUCGGGGAAAAAAGGAAAAAAGGAAAAAAGGGGAAAGUAUUAUGUUACGCCGUUCGGAUCUGCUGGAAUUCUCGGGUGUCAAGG: -0.635

Series 3
Target: PABPC1L2, full length, GST fusion (mouse, UniProt A0ABA7IW68)
Technique: RNAcompete
Form: RNA
Matrix: in vitro
Concentration: 20 nM
Setting: 7-mer, probes averaged, single round
Baseline: mean of 7-mers
Direction: higher = stronger binding
Quantity: 7-mer Z-score
Residues (chain): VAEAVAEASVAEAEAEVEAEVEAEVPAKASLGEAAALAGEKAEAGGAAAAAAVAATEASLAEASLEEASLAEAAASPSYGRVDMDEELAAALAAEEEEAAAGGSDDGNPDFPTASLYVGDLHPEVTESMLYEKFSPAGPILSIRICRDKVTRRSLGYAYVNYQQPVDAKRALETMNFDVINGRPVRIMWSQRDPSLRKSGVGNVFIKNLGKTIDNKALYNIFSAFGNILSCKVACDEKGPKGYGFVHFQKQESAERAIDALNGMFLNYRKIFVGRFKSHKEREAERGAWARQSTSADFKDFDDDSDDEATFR
UCGAGUG: -0.15
GAAGCGC: -0.0283
CGUAGAG: -0.117
GGAGUCA: -0.0681
GAGUUUA: -0.36
AGCCUGU: -0.253
CAAUUUC: -0.224
UUGUUCG: -0.436

Series 4
Target: CCNF, cyclin fold, Cln2 fusion (human)
Technique: yeast growth competition, sequencing
Matrix: yeast
Setting: strong parent motif
Baseline: not given
Direction: higher = stronger binding
Quantity: normalised enrichment score
Starting sequence: viral docking peptide; KGVKRKLFAEDSS
KGVKRHLFAEDSS [K6H]: 3.57
KGVKEKLFAEDSS [R5E]: 0.0815
KGVKRNLFAEDSS [K6N]: 6.3
KVVKRKLFAEDSS [G2V]: 7.42
KGVKNKLFAEDSS [R5N]: 0.408
KGSKRKLFAEDSS [V3S]: 3.03
KGVKRKLFFEDSS [A9F]: 8.74
KWVKRKLFAEDSS [G2W]: 8.11
KGVKCKLFAEDSS [R5C]: 2.16
KGVKRKLFAELSS [D11L]: 7.98
KGVKRKLGAEDSS [F8G]: 0.62
KGVKRKNFAEDSS [L7N]: 0.332
KGVKRKLFSEDSS [A9S]: 7.73
KGVKRKLFAEVSS [D11V]: 8.09
KGVKRKLFAEASS [D11A]: 7.73

Some of these lines once more (series 4):
KGVKEKLFAEDSS [R5E]: 0.0815
KGVKRKLFFEDSS [A9F]: 8.74
KGVKRNLFAEDSS [K6N]: 6.3
KGVKCKLFAEDSS [R5C]: 2.16
KGVKRKLGAEDSS [F8G]: 0.62
KGVKRKLFAEVSS [D11V]: 8.09
